Measured values of several laboratories.
Numbered parts are unrelated; each lists some results of a single study. Several values in a cell are separate wells, animals, samples, runs or records.
Chain of UniProt O75914 (whole entry, looked up): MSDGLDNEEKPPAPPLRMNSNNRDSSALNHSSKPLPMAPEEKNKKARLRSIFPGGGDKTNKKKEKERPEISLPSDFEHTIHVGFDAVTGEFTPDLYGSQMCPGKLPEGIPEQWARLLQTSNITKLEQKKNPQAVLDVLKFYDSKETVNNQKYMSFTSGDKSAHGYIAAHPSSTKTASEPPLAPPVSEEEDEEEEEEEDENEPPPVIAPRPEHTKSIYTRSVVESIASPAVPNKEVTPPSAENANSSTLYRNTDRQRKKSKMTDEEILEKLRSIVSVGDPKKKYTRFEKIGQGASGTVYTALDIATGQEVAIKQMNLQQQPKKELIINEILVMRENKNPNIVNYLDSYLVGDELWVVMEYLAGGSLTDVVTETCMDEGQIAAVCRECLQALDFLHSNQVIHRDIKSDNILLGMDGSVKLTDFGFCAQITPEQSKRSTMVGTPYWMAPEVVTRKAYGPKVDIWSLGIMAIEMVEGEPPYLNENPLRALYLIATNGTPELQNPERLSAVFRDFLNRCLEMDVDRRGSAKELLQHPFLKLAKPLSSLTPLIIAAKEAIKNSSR
Chain of UniProt P53667 (whole entry, looked up): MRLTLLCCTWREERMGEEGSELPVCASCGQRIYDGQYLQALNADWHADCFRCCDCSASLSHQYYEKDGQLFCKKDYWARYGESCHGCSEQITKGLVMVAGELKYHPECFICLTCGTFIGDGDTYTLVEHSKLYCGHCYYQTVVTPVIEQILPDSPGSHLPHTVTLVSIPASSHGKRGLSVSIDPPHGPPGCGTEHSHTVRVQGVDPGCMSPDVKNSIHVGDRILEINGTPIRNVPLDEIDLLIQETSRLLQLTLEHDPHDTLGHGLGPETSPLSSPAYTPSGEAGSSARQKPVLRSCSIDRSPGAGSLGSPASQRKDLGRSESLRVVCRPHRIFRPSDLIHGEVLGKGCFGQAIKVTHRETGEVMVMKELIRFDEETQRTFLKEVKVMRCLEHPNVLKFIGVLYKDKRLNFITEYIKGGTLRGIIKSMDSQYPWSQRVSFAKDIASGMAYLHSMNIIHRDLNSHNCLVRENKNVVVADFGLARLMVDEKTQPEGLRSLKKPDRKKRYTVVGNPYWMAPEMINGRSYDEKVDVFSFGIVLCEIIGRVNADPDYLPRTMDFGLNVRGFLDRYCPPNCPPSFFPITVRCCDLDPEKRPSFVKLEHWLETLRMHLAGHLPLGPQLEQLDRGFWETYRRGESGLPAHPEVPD
Chain of UniProt P37023 (whole entry, looked up): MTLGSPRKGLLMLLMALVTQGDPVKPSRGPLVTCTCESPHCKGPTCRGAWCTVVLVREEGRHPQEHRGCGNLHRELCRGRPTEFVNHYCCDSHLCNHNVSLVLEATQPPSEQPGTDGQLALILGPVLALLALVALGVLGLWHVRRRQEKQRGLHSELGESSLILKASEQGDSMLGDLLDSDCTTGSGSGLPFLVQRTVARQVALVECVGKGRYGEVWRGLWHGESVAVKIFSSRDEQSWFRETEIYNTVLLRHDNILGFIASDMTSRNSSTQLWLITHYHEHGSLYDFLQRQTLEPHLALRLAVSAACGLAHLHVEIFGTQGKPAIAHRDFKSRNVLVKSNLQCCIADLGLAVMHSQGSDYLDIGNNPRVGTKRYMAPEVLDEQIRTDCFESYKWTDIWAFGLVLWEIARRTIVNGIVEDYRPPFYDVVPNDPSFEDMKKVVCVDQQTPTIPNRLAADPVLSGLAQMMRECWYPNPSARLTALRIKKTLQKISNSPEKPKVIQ

Block 1 — read-out: enzyme activity; mode: inhibitor; tested at: 0.5 µM; baseline: control
Target: Cytoplasmic tyrosine-protein kinase BMX (BMX, Homo sapiens, UniProt P51813)
Chain of UniProt P51813 (whole entry, looked up): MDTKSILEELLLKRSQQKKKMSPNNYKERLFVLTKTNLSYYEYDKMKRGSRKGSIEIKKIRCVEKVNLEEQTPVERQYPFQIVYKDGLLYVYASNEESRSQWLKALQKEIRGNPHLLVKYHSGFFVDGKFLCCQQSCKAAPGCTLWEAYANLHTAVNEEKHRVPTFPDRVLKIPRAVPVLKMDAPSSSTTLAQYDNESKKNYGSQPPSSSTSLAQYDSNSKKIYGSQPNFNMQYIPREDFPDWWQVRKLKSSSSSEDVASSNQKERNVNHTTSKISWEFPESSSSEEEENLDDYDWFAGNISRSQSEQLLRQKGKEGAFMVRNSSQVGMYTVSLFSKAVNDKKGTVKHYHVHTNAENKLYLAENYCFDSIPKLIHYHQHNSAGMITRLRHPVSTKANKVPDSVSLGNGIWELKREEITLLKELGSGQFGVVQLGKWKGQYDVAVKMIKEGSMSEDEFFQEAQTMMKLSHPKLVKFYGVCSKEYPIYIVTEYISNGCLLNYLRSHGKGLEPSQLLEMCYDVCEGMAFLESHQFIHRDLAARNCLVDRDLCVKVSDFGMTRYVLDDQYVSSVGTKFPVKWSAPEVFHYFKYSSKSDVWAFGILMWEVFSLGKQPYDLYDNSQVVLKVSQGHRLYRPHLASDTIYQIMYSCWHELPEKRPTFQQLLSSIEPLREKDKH
For `O=C1c2ccccc2-c2nc3nnnn3nc21`, the remaining activity was 79%.
`NC(=O)c1ccc(-c2nc(-c3ccc4c(c3)OCCO4)c(-c3ccccn3)[nH]2)cc1` gave a remaining activity of 100%.
The remaining activity of `CCCCc1c(-c2ccc(O)cc2)[nH]c2nccnc12` is reported as 86.8%.
The remaining activity of `CC(C)(C)c1nc2c3cc[nH]c(=O)c3c3cc(F)ccc3c2[nH]1` is reported as 71.9%.
For `O=C(c1ccccc1)c1ccc(N2CCOCC2)cc1O`, the remaining activity was 90.4%.
The remaining activity of `CC(C)n1cnc2c(Nc3cccc(Cl)c3)nc(NCCO)nc21` is reported as 92.5%.
With `CCN(CC)CCCCN1c2ccccc2Oc2ccc(Cl)cc21` the remaining activity was 104%.
The remaining activity of `N#CC(c1ccnc(NCCc2cccnc2)n1)c1nc2ccccc2s1` (stereo not drawn) is reported as 92.9%.
With `O=C(O)/C=C/c1cc(Br)c(Br)c(Br)c1Br` the remaining activity was 97%.
`O=Nc1c(-c2c(O)[nH]c3ccccc23)[nH]c2ccccc12` gave a remaining activity of 80.1%.
`O=C1NC(=O)/C(=C/c2ccc3c(c2)OC(F)(F)O3)S1` has a remaining activity of 99.6%.
For `N#C/C(=C(/N)SC1C=CC=CC1)c1cccc(C(O)c2ccncc2)c1` (stereo not drawn), the remaining activity was 81.2%.
`O=c1c(-c2ccc(F)cc2)c(-c2ccncc2)[nH]n1-c1ccc(Cl)cc1` gave a remaining activity of 95.8%.
`COc1cc2c(Nc3ccc(Br)cc3F)ncnc2cc1OCC1CCN(C)CC1` gave a remaining activity of 88.4%.
`Clc1ccc(Nc2nnc(Cc3ccncc3)c3ccccc23)cc1` has a remaining activity of 106%.
For `c1cc(-c2cnn3cc(-c4ccc(OCCN5CCCCC5)cc4)cnc23)ccn1`, the remaining activity was 95.4%.
For `NC(=O)c1cccc(-c2cc(Nc3ccc(OC(F)(F)F)cc3)ncn2)c1`, the remaining activity was 107%.
For `CC(C)N(CCC(=O)c1ccc2ccccc2c1)Cc1ccccc1`, the remaining activity was 102%.
For `Nc1nc(Nc2ccc(S(N)(=O)=O)cc2)nn1C(=S)Nc1c(F)cccc1F`, the remaining activity was 77.5%.

Block 2 — read-out: enzyme activity; mode: inhibitor; tested at: 77 µM
Target: DNA polymerase theta, ATPase domain (POLQ, Homo sapiens, UniProt O75417)
Chain of UniProt O75417 (whole entry, unmodified, looked up): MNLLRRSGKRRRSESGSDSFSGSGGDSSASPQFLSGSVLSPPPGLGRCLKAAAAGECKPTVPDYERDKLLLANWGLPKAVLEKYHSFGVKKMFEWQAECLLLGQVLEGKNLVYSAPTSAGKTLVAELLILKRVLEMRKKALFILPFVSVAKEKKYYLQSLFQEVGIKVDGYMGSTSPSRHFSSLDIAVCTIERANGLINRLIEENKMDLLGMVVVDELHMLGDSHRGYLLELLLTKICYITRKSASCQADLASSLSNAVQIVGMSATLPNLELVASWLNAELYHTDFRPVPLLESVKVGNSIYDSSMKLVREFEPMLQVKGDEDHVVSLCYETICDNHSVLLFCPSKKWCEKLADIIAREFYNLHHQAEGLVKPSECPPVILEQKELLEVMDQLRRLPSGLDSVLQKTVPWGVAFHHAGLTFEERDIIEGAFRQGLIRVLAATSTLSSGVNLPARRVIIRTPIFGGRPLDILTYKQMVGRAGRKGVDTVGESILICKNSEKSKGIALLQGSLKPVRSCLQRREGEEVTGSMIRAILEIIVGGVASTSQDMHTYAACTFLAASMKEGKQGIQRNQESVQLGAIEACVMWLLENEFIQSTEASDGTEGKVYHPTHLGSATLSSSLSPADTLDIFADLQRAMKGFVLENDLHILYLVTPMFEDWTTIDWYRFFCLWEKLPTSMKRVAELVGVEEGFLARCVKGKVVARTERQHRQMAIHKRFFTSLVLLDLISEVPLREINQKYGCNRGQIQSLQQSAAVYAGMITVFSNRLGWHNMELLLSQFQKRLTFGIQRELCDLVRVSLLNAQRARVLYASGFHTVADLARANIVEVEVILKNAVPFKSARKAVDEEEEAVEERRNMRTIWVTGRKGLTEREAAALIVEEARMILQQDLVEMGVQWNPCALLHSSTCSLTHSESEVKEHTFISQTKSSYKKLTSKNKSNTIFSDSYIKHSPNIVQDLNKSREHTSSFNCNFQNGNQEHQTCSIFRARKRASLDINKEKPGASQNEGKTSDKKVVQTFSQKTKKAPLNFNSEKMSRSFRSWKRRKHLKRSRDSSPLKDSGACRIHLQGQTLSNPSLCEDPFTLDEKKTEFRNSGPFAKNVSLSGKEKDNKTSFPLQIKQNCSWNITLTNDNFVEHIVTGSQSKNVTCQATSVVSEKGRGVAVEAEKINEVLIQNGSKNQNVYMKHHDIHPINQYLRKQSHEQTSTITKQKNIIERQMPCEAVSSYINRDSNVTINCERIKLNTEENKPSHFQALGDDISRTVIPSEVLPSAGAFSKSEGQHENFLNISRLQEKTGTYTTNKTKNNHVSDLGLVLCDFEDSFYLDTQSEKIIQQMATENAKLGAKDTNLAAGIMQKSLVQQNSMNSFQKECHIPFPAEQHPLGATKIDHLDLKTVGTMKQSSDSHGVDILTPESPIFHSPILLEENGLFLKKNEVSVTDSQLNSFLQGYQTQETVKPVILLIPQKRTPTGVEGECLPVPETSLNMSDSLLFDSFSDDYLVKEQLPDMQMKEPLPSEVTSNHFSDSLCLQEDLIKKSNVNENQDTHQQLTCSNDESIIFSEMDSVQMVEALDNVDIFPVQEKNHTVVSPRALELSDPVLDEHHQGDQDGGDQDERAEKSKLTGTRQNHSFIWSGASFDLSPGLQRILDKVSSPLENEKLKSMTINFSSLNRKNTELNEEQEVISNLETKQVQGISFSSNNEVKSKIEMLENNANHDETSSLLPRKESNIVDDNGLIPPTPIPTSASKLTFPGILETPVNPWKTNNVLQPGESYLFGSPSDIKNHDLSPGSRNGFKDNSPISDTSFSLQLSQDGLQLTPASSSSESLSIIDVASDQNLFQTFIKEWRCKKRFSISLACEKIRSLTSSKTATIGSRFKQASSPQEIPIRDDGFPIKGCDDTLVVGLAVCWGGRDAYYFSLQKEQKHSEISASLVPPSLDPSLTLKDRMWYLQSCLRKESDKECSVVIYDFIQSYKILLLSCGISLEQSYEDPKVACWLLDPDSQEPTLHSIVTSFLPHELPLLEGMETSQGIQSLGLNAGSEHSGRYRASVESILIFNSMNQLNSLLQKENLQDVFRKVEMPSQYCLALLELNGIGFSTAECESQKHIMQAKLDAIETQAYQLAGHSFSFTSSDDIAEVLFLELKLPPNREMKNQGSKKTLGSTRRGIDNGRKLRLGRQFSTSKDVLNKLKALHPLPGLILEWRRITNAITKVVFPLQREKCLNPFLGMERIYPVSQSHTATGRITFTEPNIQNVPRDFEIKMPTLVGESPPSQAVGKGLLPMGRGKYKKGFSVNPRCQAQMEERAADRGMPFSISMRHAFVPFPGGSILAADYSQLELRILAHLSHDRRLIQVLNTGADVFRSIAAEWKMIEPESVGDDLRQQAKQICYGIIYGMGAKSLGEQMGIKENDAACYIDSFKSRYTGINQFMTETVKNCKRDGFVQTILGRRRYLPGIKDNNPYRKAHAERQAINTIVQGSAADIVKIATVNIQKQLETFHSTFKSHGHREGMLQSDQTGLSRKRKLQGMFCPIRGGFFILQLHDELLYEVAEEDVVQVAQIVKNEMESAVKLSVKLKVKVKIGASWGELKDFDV
With `CCCC1C(=O)N2C(N(C)C)=Nc3ccc(C)cc3N2C1=O` (stereo not drawn) the remaining activity was 97.3%.
The remaining activity of `CCN(CC)CC(=O)Nc1c(C)cccc1C` is reported as 101%.
For `Fc1ccc(C(c2ccc(F)cc2)N2CCN(C/C=C/c3ccccc3)CC2)cc1`, the remaining activity was 102%.
The remaining activity of `CCCCCCCCCC[Si](C)(C)CCC(=O)NC(Cc1ccc(C)cc1)c1ccccc1` (stereo not drawn) is reported as 105%.
`CN1[C@@H](CC(=O)c2ccccc2)CCC[C@H]1C[C@H](O)c1ccccc1` has a remaining activity of 102%.
For `C[N+]1(C)CCC(OC(=O)C(O)(c2ccccc2)C2CCCC2)C1` (stereo not drawn), the remaining activity was 100%.
The remaining activity of `CC(C)n1c(/C=C/[C@H](O)C[C@H](O)CC(=O)O)c(-c2ccc(F)cc2)c2ccccc21` is reported as 102%.
`O=C1NC(=O)/C(=C/c2ccc3c(c2)OC(F)(F)O3)S1` gave a remaining activity of 71.6%.

Block 3 — technique: competitive binding panel; tested at: 1 µM; baseline: vehicle
SMILES: CN1CCN(C(=O)c2ccc(NC(=O)Nc3ccc(N(C)c4ccnc(Nc5ccc(CS(C)(=O)=O)cc5)n4)cc3)cc2)CC1
For Serine/threonine-protein kinase WNK1 (WNK1, Homo sapiens, UniProt Q9H4A3): remaining binding read 94%.
It gave 93% for remaining binding (Serine/threonine-protein kinase Nek7 (NEK7, Homo sapiens, UniProt Q8TDX7)).
It gave 61% for remaining binding (LIM domain kinase 1 (LIMK1, Homo sapiens, UniProt P53667)).
Phosphatidylinositol 3-kinase catalytic subunit type 3 (PIK3C3, Homo sapiens, UniProt Q8NEB9); refers to: VPS34 — remaining binding: 74%.
It gave 100% for remaining binding (Phosphatidylinositol 4,5-bisphosphate 3-kinase catalytic subunit alpha isoform (PIK3CA, Homo sapiens, UniProt P42336, Q546K)).
Cyclin-dependent kinase 18 (CDK18, Homo sapiens, UniProt Q07002); refers to: PCTK3 — remaining binding: 96%.
For Calcium/calmodulin-dependent protein kinase kinase 1 (CAMKK1, Homo sapiens, UniProt Q8N5S9): remaining binding read 28%.
For Serine/threonine-protein kinase PAK 3 (PAK3, Homo sapiens, UniProt O75914): remaining binding read 0%.
It gave 78% for remaining binding (NUAK family SNF1-like kinase 1 (NUAK1, Homo sapiens, UniProt O60285); refers to: ARK5).
The remaining binding was 79% (Activin receptor type-1-like (ACVRL1, Homo sapiens, UniProt P37023)).

Further values, each from its own experiment — tested at: 10 µM
`Cn1cncc1[C@@](O)(COc1ccc(C#N)cc1-c1ccc(OC(F)(F)F)cc1)c1ccc(C#N)cc1` — result for “cells with fragmented nuclei”: 6.64% and 18.6% (HEK293T; high-content imaging; 0 h).
With `CO[C@H]1CC[C@H](CNc2ccc(S(=O)(=O)NC(=O)c3ccc(N4CCN(CC5=C(c6ccc(Cl)cc6)CC(C)(C)CC5)CC4)cc3Oc3cnc4[nH]ccc4c3)cc2[N+](=O)[O-])CC1` the inhibition was -24.9% (5-hydroxytryptamine receptor 5A (HTR5A, Homo sapiens, UniProt P47898); ligand displacement).

Repeated from above (block 1):
`O=C1NC(=O)/C(=C/c2ccc3c(c2)OC(F)(F)O3)S1` has a remaining activity of 99.6%.
For `N#C/C(=C(/N)SC1C=CC=CC1)c1cccc(C(O)c2ccncc2)c1` (stereo not drawn), the remaining activity was 81.2%.
`O=c1c(-c2ccc(F)cc2)c(-c2ccncc2)[nH]n1-c1ccc(Cl)cc1` gave a remaining activity of 95.8%.
`COc1cc2c(Nc3ccc(Br)cc3F)ncnc2cc1OCC1CCN(C)CC1` gave a remaining activity of 88.4%.
`Clc1ccc(Nc2nnc(Cc3ccncc3)c3ccccc23)cc1` has a remaining activity of 106%.
